Experimental data from different studies.
“And” joins repeats or separate records; there may be more than shown. Numbers after ± are the reported error.

`heparin sodium` — result for “time to maximum prothrombin time”: 1.99 h (healthy Chinese adult volunteers, plasma; continuous intravenous infusion, 8 IU/kg/h, day 1 to 6 of 5-day infusion, median with range).
`maraviroc` gave an Aβ40 level of 9.33 ± 0.5 pg/µg (ELISA; HIV-infected mice, brain; i.p., 120 mg/kg twice daily, 3 weeks post infection).
For `Pam2CSK4`, “Thioflavin S plaque level” read 0.817 and 0.783 (APP/PS1 mouse, cortex; local injection, dose not given, unit not given; reference: injected over adjacent side).
`CCT3` has a co-IP enrichment of 0 (co-immunoprecipitation; human RBC cytosol; unit not given, together with: Band 3 peptide 1-56 bait; reference: negative control).
`somatropin` — result for “first-year growth velocity”: 7.8 cm/year (Turner syndrome patients; dose not given, median).
`difelikefalin`: “PGIC minimally improved” 34.4% (Japanese haemodialysis patients with pruritus; intravenous, 0.25 µg/kg, 8 weeks).
The co-IP enrichment of `ERK2` is reported as 0 (co-immunoprecipitation; human plasma; no crosslinker, unit not given, together with: Band 3 peptide 1-56 bait; reference: negative control).
For `semaglutide`, “fasting blood glucose” read 96 ± 3 mg/dL (DIO male Wistar rats; dose not given, 2 weeks).
`TLLEWLTKV` has a reporter activation of 0.00882% (Jurkat T cells expressing 1G4 TCR; NFAT-eGFP reporter, fluorescence microscopy; peptide; concentration not given, HLA-A*02:01 NY-ESO system).
For `calcium`, “desensitization time constant” read 17.6 s and 10.9 s and 36.8 s and 19.4 s (ion current, two-electrode voltage clamp; Xenopus oocytes; 1.8 mM, 80 mV, together with: niflumic acid present).
`GSGAGSETSV` gave a binding intensity of 0.117 (human MAGI1-3/6 PDZ construct (MBP fusion); automated holdup; peptide, purified PDZ protein; concentration not given, unit not given; reference: biotin control resin, higher = stronger binding).
With `hemoglobin alpha` the co-IP enrichment was 0.467 (co-immunoprecipitation; human RBC cytosol; unit not given, together with: Band 3 peptide 1-56 bait; reference: negative control).
`cotadutide` gave a plasma AST of 841 ± 105 U/L (ob/ob mouse, AMLN diet NASH model; dose not given, terminal).
The co-IP enrichment of `human desmoplakin` is reported as 0 (co-immunoprecipitation; human RBC cytosol; no crosslinker, unit not given, together with: Band 3 peptide 1-56 bait; reference: negative control).
The binding intensity of `TASPAKETSF` is reported as -0.211 (human MAGI1-3/6 PDZ construct (MBP fusion); automated holdup; peptide, crude extract; concentration not given, uncorrected, unit not given; reference: biotin control resin, higher = stronger binding).

For quick reference, copied from above:
The co-IP enrichment of `human desmoplakin` is reported as 0 (co-immunoprecipitation; human RBC cytosol; no crosslinker, unit not given, together with: Band 3 peptide 1-56 bait; reference: negative control).
With `hemoglobin alpha` the co-IP enrichment was 0.467 (co-immunoprecipitation; human RBC cytosol; unit not given, together with: Band 3 peptide 1-56 bait; reference: negative control).
